Measurements of several laboratories.
Numbers after ± are the reported error.
Technique: steady-state kinetics
B1: enzyme (Myxococcus xanthus, UniProt Q1DB04); chain MSFINYSSREINCKIVYYGPGLCGKTTNLQYIYNKTAAETKGKLISLSTETDRTLFFDFLPLSLGEIRGFKTRFHLYTVPGQVFYDASRKLILKGVDGVVFVADSQIERMEANMESLENLRINLAEQGYDLNKIPYVIQYNKRDLPNAVTVEEMRKALNHRNIPEYQAVAPTGVGVFDTLKAVAKLVLTELKKGG
B2: enzyme S252E (Schizosaccharomyces pombe, UniProt P78804); chain MSTPYEPEFQQAYKEIVGSIESSKLFEVHPELKRVLPIISIPERVLEFRVTWEDDKGNCRVNTGYRVQFNSALGPYKGGLRFHPSVNLSILKFLGFEQIFKNALTGLPMGGGKGGSDFDPKGKSDNEIRRFSQAFMRQLFRYIGPQTDVPAGDIGVTGFVVMHMFGEYKRLRNEYSGVVTGKHMLTGGSNIRPEATGYGVVYYVKHMIEHRTKGAETLKGKRVAISGSGNVAQYAALKCIQEGAIVKSISDEKGVLIAKTAEGLVPEEIHEIMALKEKRASIADSASLCKKHHYIAGARPWTNVGEIDIALPCATQNEVSGEEAAALIKQGCRYVAEGSNMGSSAEAVEVFEKSRASGEGCWLAPGKAANAGGVAVSGLEMAQNAQFSTWTHAEVDAKLAGIMQNIFEQSTDVASKYCDSGSNNIPSLVDGANIAGFLKVATAMQAVGDWW
B3: LYS1 C205S/H96Q/K77M (Saccharomyces cerevisiae, UniProt P38998); chain MAAVTLHLRAETKPLEARAALTPTTVKKLIAKGFKIYVEDSPQSTFNINEYRQAGAIIVPAGSWKTAPRDRIIIGLMEMPETDTFPLVHEHIQFAQCYKDQAGWQNVLMRFIKGHGTLYDLEFLENDQGRRVAAFGFYAGFAGAALGVRDWAFKQTHSDDEDLPAVSPYPNEKALVKDVTKDYKEALATGARKPTVLIIGALGRSGSGAIDLLHKVGIPDANILKWDIKETSRGGPFDEIPQADIFINCIYLSKPIAPFTNMEKLNNPNRRLRTVVDVSADTTNPHNPIPIYTVATVFNKPTVLVPTTAGPKLSVISIDHLPSLLPREASEFFSHDLLPSLELLPQRKTAPVWVRAKKLFDRHCARVKRSSRL
B4: enzyme C429A (Methanosarcina mazei, UniProt Q8PVB1); chain MSEQRSVPLREHLLALKPCRHGGLIQETSETYGIPENEILDFSANFNPLGSPFDYPENGLNFEDIIKKSCGKLLEYPDNRYVEFREAAARFVGLGVTPQSIVPGNGSTEIVRLVVESVIEKGDKVLLPWPTFGEYEMQCRITGAEPVCPSQEEVNTLPDEVLEEAKILFICNPNNPTGKLRTREELKVLAERCREHKTLLYVDEAFIELSDPSQSVADLPAENNYVFVMRSLTKDFAIPGIRMGFGIAPPAMADILNTARLSWNLGAIANNTGIALLNIEGGIDSPYLKKAREMILKEGETLKAKIDRIRGFEAGEVNVNFILVDVSKFMLNSSELTARLAARGVLVRDCVSFHGLGKNYIRVAVRTEKENDRLIAAIGDVITEWGREQAKNELQHVIEKASEEGIGGRKTCEYYPCHFEGQNCTFCFAPFYPCENEKTGGKWIQSSRGGRVWSCVDCHLVHKKEIAQKILDCLMHEGDTDELVKVAWKEVMEPIL
B5: enzyme F197V/V84L (Vanderwaltozyma polyspora, UniProt A7TM80); chain MSVLISGASGYIAKHIVRVLLEQNYKVIGTVRSQDKADKLLKQYNNPNLSYEIVPEIANLDAFDDIFKKHGKEIKYVIHAASPLNFGAKDLEKDLVIPAINGTKNMFEAIKKYAPDTVERVVMTASYASIMTPHRQNDPTLTLDEETWNPVTEENAYENVFTAYCASKTFAEKEAWKFVKENSDAVKFKLTTIHPSVVFGPQNFDEDVTKKLNETCEIINGLLHAPFDTKVEKTHFSQFIDVRDVAKTHVLGFQKDELINQRLLLCNGAFSQQDIVNVFNEDFPELKGQFPPEDKDTDLNKGVTGCKIDNEKTKKLLAFEFTPFHKTIHDTVYQILHKEGRV
B6: DHRS13 (Homo sapiens, UniProt Q6UX07); chain MEALLLGAGLLLGAYVLVYYNLVKAPPCGGMGNLRGRTAVVTGANSGIGKMTALELARRGARVVLACRSQERGEAAAFDLRQESGNNEVIFMALDLASLASVRAFATAFLSSEPRLDILIHNAGISSCGRTREAFNLLLRVNHIGPFLLTHLLLPCLKACAPSRVVVVASAAHCRGRLDFKRLDRPVVGWRQELRAYADTKLANVLFARELANQLEATGVTCYAAHPGPVNSELFLRHVPGWLRPLLRPLAWLVLRAPRGGAQTPLYCALQEGIEPLSGRYFANCHVEEVPPAARDDRAAHRLWEASKRLAGLGPGEDAEPDEDPQSEDSEAPSSLSTPHPEEPTVSQPYPSPQSSPDLSKMTHRIQAKVEPEIQLS
B7: CYP4F3 A27G/C46R/I34V/M14V/R49Q/W12G (Homo sapiens, UniProt Q08477); chain MALLLAVFLLGPVAASPWLLLLLVGGSWLLARVLAWTYTFYDNCRRLQCFPQPPKRNWFLGHLGLVTPTEQGMRVLTQLVATYPQGFKVWMGPIFPVIRFCHPNIIRSVINASAAIVPKDKVFYSFLKPWLGDGLLLSAGEKWSRHRRMLTPAFHFNILKPYMKIFNESVNIMHAKWQLLASEGSARLDMFEHISLMTLDSLQKCVFSFDSHCQEKPSEYIAAILELSALVTKRHQQILLYIDFLYYLTPDGQRFRRACRLVHDFTDAVIQERRRTLPSQGVDDFLQAKAKSKTLDFIDVLLLSKDEDGKKLSDEDIRAEADTFMFEGHDTTASGLSWVLYHLAKHPEYQERCRQEVQELLKDREPKEIEWDDLAQLPFLTMCIKESLRLHPPVPAVSRCCTQDIVLPDGRVIPKGIICLISVFGTHHNPAVWPDPEVYDPFRFDPKNIKERSPLAFIPFSAGPRNCIGQAFAMAEMKVVLGLTLLRFRVLPDHTEPRRKPELVLRAEGGLWLRVEPLS
B8: acsA (Pseudomonas chlororaphis, UniProt Q5CD72); chain MRDYEHVVESFDYLQSATQDLHGELTALNACVECCDRHAHGEAVALYCEAQDGHAERYRFRDLQRQAARFGNFLREQGVKPGDRVAGLMPRTVELLIAILGTWRIGAVYQPLFTAFGPKAIEQRLNCSNARWIVTDPHNRPKLDDVTDCPSIVVTGGAPQNPADHHFWSALNRQADDCAPVLLDASAPFLLMCTSGTTGPAKPLEVPLSAILAFKGYMRDAIDLRADDRFWNLADPGWAYGLYYAVTGPLACGYATLFYDGPFTVESTRHIIAKYAINNLAGSPTAYRFLIAAGAEFADAVRGRLRAVSSAGEPLNPQVVRWFAEQLGVVIHDHYGQTEIGMVLCNHHGLRHPVREGSAGYAVPGYRIVVLDKAHRELPAGQPGVLAVDRERSPLCWFDGYLGMPTQAFAGRYYLSGDIVELNDDGSISFVGRNDDLITTSGYRVGPFDVESALIEHPAVVEAAVIGKPDPQRTELIKAFVVLNTPYLPSPELAEELRLHVRQRLAAHAYPREMEFVDHLPKTPSGKLQRFILRNQEIAKQQALG
B9: enzyme (Saccharina japonica, UniProt A0A097IUE3); chain QQLGKTASMATVSSLGIDKATGIKNPTTVHRNLPYPEVFEHEVKHKEGEVTSNGTFCVSTGQFTGRSPKDKYFVKQAPSDKNLDWGKVNVGVAPDVFKNIYKKAVKHYNDNVEKMYVFDGYCGTSPKSRKNVRIITELAWQHHFAKNMFIRPESEAEVADFAPDFTIVNACKVVNDDYKELGLNSEVAVVFNVEERKAVITGTWYGGEMKKGIFSMMNYWLPLDGVMAMHCSANKGKNGDTALFFGLSGTGKTTLSADPDRYLIGDDEHGWDDDGIFNFEGGCYAKTINLSHKNEPEIYDAIKKDALLENVIIKGNGDPDYTDVSKTENTRVSYPIYHIDNYEPSGMGGHPNSIVFLTCDAFGVLPPVSRLSAGQAMYHFLSGYTAKVAGTERGVTEPTPNFSACFGAAFLTLHPTAYADLLQKKLDTHGTQCFLINTGWTGGGYGVGKRMSIKATRACVNSVLDGSINKTKFTADPVFGFEVPADLPGVPSKVLNPRDAWSDKESYDTTRTKLAGMFKDNFTKFVKPGVTNYTAYGPK
UniProt P05181, sequence (whole entry, looked up): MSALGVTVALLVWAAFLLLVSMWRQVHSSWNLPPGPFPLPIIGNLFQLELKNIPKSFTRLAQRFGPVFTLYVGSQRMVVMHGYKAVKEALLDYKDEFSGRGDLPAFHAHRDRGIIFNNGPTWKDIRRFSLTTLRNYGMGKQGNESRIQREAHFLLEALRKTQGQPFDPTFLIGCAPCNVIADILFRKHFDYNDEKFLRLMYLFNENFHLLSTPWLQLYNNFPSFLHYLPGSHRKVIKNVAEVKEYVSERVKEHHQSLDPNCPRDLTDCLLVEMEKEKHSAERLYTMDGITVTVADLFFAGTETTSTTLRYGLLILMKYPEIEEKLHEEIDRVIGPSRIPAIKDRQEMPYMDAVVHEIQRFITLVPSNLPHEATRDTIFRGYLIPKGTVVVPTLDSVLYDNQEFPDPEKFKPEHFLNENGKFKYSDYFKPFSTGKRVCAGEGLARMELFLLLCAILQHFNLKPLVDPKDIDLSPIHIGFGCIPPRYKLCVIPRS
UniProt P09546, sequence (whole entry, looked up): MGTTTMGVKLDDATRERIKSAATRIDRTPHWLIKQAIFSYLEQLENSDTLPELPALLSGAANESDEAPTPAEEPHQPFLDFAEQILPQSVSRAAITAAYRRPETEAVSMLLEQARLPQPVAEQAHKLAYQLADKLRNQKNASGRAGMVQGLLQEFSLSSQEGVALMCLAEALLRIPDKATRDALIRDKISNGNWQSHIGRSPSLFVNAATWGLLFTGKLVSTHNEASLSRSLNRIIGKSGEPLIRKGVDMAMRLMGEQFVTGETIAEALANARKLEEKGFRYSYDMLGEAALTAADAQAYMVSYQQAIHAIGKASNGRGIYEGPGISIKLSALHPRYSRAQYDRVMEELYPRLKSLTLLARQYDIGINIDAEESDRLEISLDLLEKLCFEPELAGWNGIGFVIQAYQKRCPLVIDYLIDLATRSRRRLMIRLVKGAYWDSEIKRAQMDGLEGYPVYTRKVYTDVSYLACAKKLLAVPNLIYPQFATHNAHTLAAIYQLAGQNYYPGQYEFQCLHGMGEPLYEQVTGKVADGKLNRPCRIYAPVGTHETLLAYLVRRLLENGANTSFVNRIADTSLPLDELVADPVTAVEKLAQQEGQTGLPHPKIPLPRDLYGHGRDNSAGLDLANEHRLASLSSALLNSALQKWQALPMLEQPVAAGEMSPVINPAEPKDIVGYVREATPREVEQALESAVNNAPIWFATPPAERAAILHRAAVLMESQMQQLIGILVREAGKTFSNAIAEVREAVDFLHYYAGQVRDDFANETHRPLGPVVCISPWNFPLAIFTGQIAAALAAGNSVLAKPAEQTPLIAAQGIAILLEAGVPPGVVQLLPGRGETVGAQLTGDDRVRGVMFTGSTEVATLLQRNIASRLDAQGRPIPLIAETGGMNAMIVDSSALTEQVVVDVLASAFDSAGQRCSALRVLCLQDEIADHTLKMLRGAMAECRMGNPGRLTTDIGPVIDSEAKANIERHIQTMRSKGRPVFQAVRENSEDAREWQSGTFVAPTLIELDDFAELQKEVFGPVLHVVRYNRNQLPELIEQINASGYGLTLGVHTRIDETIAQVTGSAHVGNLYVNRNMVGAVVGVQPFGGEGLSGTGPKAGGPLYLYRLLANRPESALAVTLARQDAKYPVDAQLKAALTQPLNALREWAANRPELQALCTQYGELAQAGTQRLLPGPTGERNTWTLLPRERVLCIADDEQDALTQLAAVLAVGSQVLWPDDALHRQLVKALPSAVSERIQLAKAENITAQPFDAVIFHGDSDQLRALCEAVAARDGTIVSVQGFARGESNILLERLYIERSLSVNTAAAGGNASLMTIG
UniProt P39597, sequence (whole entry, looked up): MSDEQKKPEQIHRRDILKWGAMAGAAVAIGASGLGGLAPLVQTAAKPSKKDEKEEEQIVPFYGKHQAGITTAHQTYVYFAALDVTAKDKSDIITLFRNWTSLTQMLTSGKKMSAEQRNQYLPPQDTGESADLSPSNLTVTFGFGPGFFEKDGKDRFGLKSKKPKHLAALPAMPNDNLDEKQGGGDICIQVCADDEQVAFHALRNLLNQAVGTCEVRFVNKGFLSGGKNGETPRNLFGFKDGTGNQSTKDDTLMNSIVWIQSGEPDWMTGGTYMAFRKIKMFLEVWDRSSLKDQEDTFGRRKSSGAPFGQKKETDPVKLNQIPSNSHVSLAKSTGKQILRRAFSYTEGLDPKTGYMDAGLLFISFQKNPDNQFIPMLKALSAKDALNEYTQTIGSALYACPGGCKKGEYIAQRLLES
UniProt A0A348FUE1, sequence (whole entry, looked up): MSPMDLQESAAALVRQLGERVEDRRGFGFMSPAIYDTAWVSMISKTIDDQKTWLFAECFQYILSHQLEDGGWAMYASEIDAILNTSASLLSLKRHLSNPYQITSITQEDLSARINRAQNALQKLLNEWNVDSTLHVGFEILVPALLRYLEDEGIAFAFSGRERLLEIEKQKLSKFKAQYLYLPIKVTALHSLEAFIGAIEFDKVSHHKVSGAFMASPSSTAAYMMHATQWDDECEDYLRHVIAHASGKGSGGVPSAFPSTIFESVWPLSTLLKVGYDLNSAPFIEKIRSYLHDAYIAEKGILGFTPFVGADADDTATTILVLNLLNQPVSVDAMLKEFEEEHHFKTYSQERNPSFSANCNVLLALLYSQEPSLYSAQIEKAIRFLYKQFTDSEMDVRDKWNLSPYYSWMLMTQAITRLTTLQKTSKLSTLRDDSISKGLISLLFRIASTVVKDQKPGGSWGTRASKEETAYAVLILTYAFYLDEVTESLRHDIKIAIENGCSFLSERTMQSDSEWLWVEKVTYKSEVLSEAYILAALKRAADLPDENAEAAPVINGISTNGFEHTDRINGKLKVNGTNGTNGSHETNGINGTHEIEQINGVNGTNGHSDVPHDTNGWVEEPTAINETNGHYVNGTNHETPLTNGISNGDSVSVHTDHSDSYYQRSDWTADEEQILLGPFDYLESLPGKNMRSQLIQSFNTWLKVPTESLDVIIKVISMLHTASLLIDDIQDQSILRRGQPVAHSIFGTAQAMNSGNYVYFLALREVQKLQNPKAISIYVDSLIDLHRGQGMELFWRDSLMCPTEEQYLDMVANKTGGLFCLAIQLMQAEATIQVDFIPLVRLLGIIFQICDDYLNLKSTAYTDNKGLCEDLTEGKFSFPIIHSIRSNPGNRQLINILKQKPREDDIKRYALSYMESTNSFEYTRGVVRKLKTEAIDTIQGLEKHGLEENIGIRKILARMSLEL
UniProt Q96C36, sequence (whole entry, unmodified, looked up): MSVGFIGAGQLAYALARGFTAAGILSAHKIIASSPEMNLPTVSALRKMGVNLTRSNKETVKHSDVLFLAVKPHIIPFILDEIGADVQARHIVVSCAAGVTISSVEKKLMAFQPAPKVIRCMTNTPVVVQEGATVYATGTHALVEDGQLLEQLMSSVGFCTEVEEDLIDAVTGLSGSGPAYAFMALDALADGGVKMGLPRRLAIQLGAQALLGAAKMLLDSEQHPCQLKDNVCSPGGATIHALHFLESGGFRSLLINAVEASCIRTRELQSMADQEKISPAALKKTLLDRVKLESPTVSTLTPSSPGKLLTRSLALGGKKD

| Molecule | substrate | pH | temperature | setting | with | kcat |
| --- | --- | --- | --- | --- | --- | --- |
| enzyme (UniProt A0A063Y6V3) | NC(=O)C1=CN([C@@H]2O[C@H](COP(=O)(O)OP(=O)(O)OC[C@H]3O[C@@H](n4cnc5c(N)ncnc54)[C@H](OP(=O)(O)O)[C@@H]3O)[C@@H](O)[C@H]2O)C=CC1 | pH 7 | 30 °C | cofactor varied |  | 0.24 ± 0.019 s⁻¹ |
| B1 (enzyme) | Nc1nc2c(ncn2[C@@H]2O[C@H](COP(=O)(O)OP(=O)(O)OP(=O)(O)O)[C@@H](O)[C@H]2O)c(=O)[nH]1 | pH 7.4 |  | apparent | MglA 2 µM, MglB 4 µM | 0.00267 s⁻¹ |
| enzyme K46A (Homo sapiens, UniProt Q08623) | O=c1[nH]cc([C@@H]2O[C@H](COP(=O)(O)O)[C@@H](O)[C@H]2O)c(=O)[nH]1 | pH 7 | 25 °C |  |  | 0.733 s⁻¹ |
| enzyme (Talaromyces verruculosus, UniProt A0A348FUE1) | CC(C)=CCOP(=O)(O)OP(=O)(O)O | pH 7.5 |  | apparent | 150 µM IPP | 0.11 ± 0.01 s⁻¹ |
| B2 (enzyme S252E) | NC(=O)c1ccc[n+]([C@@H]2O[C@H](COP(=O)(O)OP(=O)(O)OC[C@H]3O[C@@H](n4cnc5c(N)ncnc54)[C@H](OP(=O)(O)O)[C@@H]3O)[C@@H](O)[C@H]2O)c1 | pH 7 | 30 °C | apparent |  | 5.3 ± 0.1 s⁻¹ |
| enzyme (Salvia miltiorrhiza, UniProt G3DSC6) | O=C(/C=C/c1ccc(O)cc1)O[C@H](Cc1ccc(O)c(O)c1)C(=O)O | pH 7.5 | 30 °C | not purified |  | 0.00383 s⁻¹ |
| B3 (LYS1 C205S/H96Q/K77M) | NCCCC[C@H](N)C(=O)O | pH 7 | 25 °C |  | NADH 0.5 mM | 0.16 ± 0.02 s⁻¹ |
| B4 (enzyme C429A) | Nc1ncnc2c1ncn2[C@@H]1O[C@H](COP(=O)(O)OP(=O)(O)OP(=O)(O)O)[C@@H](O)[C@H]1O | pH 8.5 | 25 °C | apparent, anoxic | L-Thr 10 mM | 0.18 ± 0.001 s⁻¹ |
| B5 (enzyme F197V/V84L) | CCO | pH 8 | 30 °C |  | NADP+ | 0.095 s⁻¹ |
| putA (Escherichia coli, UniProt P09546) | CC1=CC(=O)c2ccccc2C1=O | pH 7.4 | 20 °C |  | proline 200 mM | 3.5 ± 0.1 s⁻¹ |
| enzyme (Populus trichocarpa, UniProt A0A2K2BRQ9) | O=C(OCc1ccccc1)c1ccccc1O | pH 7 | 25 °C |  |  | 1.36 ± 0.19 s⁻¹ |
| B6 (DHRS13) | CC1=C(/C=C/C(C)=C/C=C/C(C)=C/C=O)C(C)(C)CCC1 | pH 7.4 | 37 °C |  |  | 0.097 ± 0.0217 s⁻¹ |
| B7 | CCCCC/C=C\C[C@@H](O)/C=C/C=C/C=C\[C@@H](O)CCCC(=O)O | pH 7.4 |  |  | LTB4 | 0.00317 s⁻¹ |
| CYP2E1 (Homo sapiens, UniProt P05181) | O=[N+]([O-])c1ccc(O)cc1 | pH 7.4 | 37 °C |  |  | 0.22 ± 0.0267 s⁻¹ |
| efeB (Bacillus subtilis, UniProt P39597) | CCn1c(=NN=c2sc3cc(S(=O)(=O)O)ccc3n2CC)sc2cc(S(=O)(=O)O)ccc21 | pH 6 | 25 °C | apparent |  | 12.4 ± 0.7 s⁻¹ |
| PYCR2 (Homo sapiens, UniProt Q96C36) | NC(=O)C1=CN([C@@H]2O[C@H](COP(=O)(O)OP(=O)(O)OC[C@H]3O[C@@H](n4cnc5c(N)ncnc54)[C@H](O)[C@@H]3O)[C@@H](O)[C@H]2O)C=CC1 | pH 7.5 | 37 °C | apparent, cofactor varied | DL-P5C 5000 µM | 47.9 ± 5.3 s⁻¹ |
| B8 (acsA) | O=C(O)CCC(F)(F)F | pH 7 |  |  |  | 0.0333 ± 0.0333 s⁻¹ |
| B9 (enzyme) | Nc1ncnc2c1ncn2[C@@H]1O[C@H](COP(=O)(O)OP(=O)(O)O)[C@@H](O)[C@H]1O | pH 6.5 | 25 °C |  | 16 mM PEP | 23.3 ± 0.4 s⁻¹ |
| enzyme (Staphylococcus aureus, UniProt Q2G294) | CCC(=O)O | pH 7 | 30 °C | apparent |  | 3.3 s⁻¹ |
| spt R378K (Sphingomonas paucimobilis) | CCCCCCCCCCCC(=O)SCCNC(=O)CCNC(=O)[C@H](O)C(C)(C)COP(=O)(O)OP(=O)(O)OC[C@H]1O[C@@H](n2cnc3c(N)ncnc32)[C@H](O)[C@@H]1OP(=O)(O)O |  |  |  | PLP | 0.35 ± 0.01 s⁻¹ |
